Measured values pooled from the literature.
Numbered parts are unrelated; each lists some results of a single study. Positions count from the first letter of the parent shown.

Series 1
Target: TAR DNA-binding protein 43, full length, His tag (TARDBP, Homo sapiens, UniProt Q13148, residues 1-414)
Technique: RNA Bind-n-Seq
Form: RNA
Medium: in vitro
Concentration: 20 nM
Setting: 6-mer, flanks averaged, single round
Together with: 150 mM KCl
Baseline: input library
Reading: higher = stronger binding
`CGGAUC` — result for “6-mer enrichment (R)”: 0.764.
Under “6-mer enrichment (R)”, `GCUCUC` is recorded as 0.608.
`CAAAGC`: “6-mer enrichment (R)” 0.633.
`UGCCCA` — result for “6-mer enrichment (R)”: 0.675.
For `UCUUGA`, “6-mer enrichment (R)” read 0.635.
`AUAAUG`: “6-mer enrichment (R)” 0.738.
`AUGGCU` — result for “6-mer enrichment (R)”: 0.767.
Under “6-mer enrichment (R)”, `GUUUGG` is recorded as 1.39.
`UUGCAC`: “6-mer enrichment (R)” 0.658.
For `UAUGUA`, “6-mer enrichment (R)” read 0.824.
Under “6-mer enrichment (R)”, `UAGUGG` is recorded as 1.56.
`AUUGUU`: “6-mer enrichment (R)” 0.604.
`UUCUCG`: “6-mer enrichment (R)” 0.577.
For `AAUAGC`, “6-mer enrichment (R)” read 0.683.
Under “6-mer enrichment (R)”, `UAUGCA` is recorded as 0.758.
For `GGCGCG`, “6-mer enrichment (R)” read 3.76.
For `ACGUGC`, “6-mer enrichment (R)” read 0.841.
Under “6-mer enrichment (R)”, `GUCCCC` is recorded as 0.714.
Under “6-mer enrichment (R)”, `UUCUUU` is recorded as 0.644.
For `ACCCAU`, “6-mer enrichment (R)” read 0.644.
`CUAAGC`: “6-mer enrichment (R)” 0.634.

Series 2
Molecule: B1 (RNF11 RING domain)
Technique: yeast two-hybrid
Medium: yeast
Setting: mostly zero background
Baseline: not given
Reading: higher = stronger interaction
B1: RNF11 RING domain (UniProt Q9Y3C5); chain RDGSEKKIRECVICMMDFVYGDPIRFLPCMHIYHLDCIDDWLMRSFTCPSCMEPVDAALLSS
For UBE2C UBC core domain (UniProt O00762): “lacZ reporter activity” read 0.
The “lacZ reporter activity” was 0 (BIRC6 UBC core domain (UniProt Q9NR09)).
The “lacZ reporter activity” was 0 (UBE2S UBC core domain (UniProt Q16763)).
UBE2I UBC core domain (UniProt P63279) — “lacZ reporter activity”: 0.
It gave 0 for “lacZ reporter activity” (UBE2T UBC core domain (UniProt Q9NPD8)).
UBE2E3 UBC core domain (UniProt Q969T4) — “lacZ reporter activity”: 0.
It gave 0 for “lacZ reporter activity” (UBE2G1 UBC core domain (UniProt P62253)).
UBE2Z UBC core domain (UniProt Q9H832) — “lacZ reporter activity”: 0.
For UBE2Q1 UBC core domain (UniProt Q7Z7E8): “lacZ reporter activity” read 0.
It gave 0 for “lacZ reporter activity” (UBE2B UBC core domain (UniProt P63146)).
For UBE2D2 UBC core domain (UniProt P62837): “lacZ reporter activity” read 17900.

Series 3
Target: Interferon regulatory factor 7, full length, phosphomimetic (IRF7, Homo sapiens, UniProt Q92985, residues 1-503, S101K/S471D/S472D/S475D/S476D/S477D/S483D/S484D/S487D)
Technique: protein-binding microarray
Form: double-stranded DNA, one strand shown
Medium: in vitro
Concentration: 250 nM
Setting: 60-bp whole probe
Together with: salmon DNA 0.4 mg/ml
Baseline: random background probes
Reading: higher = stronger binding
Shared flanks, not repeated: GCCTAGCAC … GTCTTGATTCGCTTGACGCTGCTG
Residues (chain): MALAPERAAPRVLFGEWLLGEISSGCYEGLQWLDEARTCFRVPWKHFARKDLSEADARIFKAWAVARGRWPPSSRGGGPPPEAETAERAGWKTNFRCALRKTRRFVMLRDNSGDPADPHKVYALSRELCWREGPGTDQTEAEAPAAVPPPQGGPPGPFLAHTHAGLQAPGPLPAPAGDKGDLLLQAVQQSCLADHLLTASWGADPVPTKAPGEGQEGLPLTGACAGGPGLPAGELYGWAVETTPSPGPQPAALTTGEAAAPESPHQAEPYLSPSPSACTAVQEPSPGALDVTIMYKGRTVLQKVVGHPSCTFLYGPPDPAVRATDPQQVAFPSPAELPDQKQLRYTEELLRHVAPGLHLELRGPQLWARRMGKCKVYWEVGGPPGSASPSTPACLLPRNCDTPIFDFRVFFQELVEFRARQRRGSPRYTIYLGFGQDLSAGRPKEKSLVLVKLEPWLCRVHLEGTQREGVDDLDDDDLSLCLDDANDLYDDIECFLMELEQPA
`GACGGTCCCCTACTGCTGACGTGCTAG` gave a log fluorescence of -0.195 z-score.
With `TTAGATCTCAGTCTCGACTAGTGCTAG` the log fluorescence was 0.682 z-score.
With `TTAGGTTCCAGTTTCGGTTAGTGCTAG` the log fluorescence was 9.17 z-score.
With `TTAGATATCGGGTTTCGAGTAGTGCTA` the log fluorescence was 3.36 z-score.
`GACGGTATGGACACTGGGGACGTGCTA` has a log fluorescence of -0.659 z-score.
`TTAGATCTCAGTATCGACTAGTGCTAG` gave a log fluorescence of 0.248 z-score.
With `TCACTTATAAATAGCACACTGTGCTAG` the log fluorescence was 0.574 z-score.
With `TTAGGTTCCAGTTTCGATTAGTGCTAG` the log fluorescence was 9.59 z-score.
The log fluorescence of `TTAGGTTTCGTACTGGGTTAGTGCTAG` is reported as 4.19 z-score.
For `GACGATTTCAGTCTGGAGACGTGCTAG`, the log fluorescence was -0.231 z-score.
`TGAGCACCCAGAGCCGCCTGGTGCTAG` has a log fluorescence of -0.774 z-score.
`GACGATTTCGGGTATCTAGACGTGCTA` gave a log fluorescence of 0.474 z-score.
`TTAGGTTTCGACACTGGGCTAGTGCTA` gave a log fluorescence of 3.26 z-score.
For `TCATGTTGTTTTTTGGTACTGTGCTAG`, the log fluorescence was 0.649 z-score.
`GACGGTATCGGCCTCGGGACGTGCTAG` has a log fluorescence of -0.433 z-score.
With `GACCGACTGGACACTGGGGACGTGCTA` the log fluorescence was -0.476 z-score.
`GACGGTTTTGGTTCCGGGACGTGCTAG` gave a log fluorescence of 3.03 z-score.
With `TTAGGTTTCGGTGTCGGTTAGTGCTAG` the log fluorescence was 4.31 z-score.
The log fluorescence of `AACGATTTCAGTTCCGAGACGTGCTAG` is reported as 0.672 z-score.

Series 4
Target: ABI1, truncated, D143A, DHFR fusion (Arabidopsis thaliana)
Technique: DHFR PCA, deep sequencing
Medium: yeast
Setting: methotrexate growth selection, single substitutions
Together with: (+)-ABA 4.8 µM
Baseline: wild-type fitted maximum
Reading: higher = stronger binding
Parent: PYL1, truncated, DHFR fusion (Arabidopsis thaliana); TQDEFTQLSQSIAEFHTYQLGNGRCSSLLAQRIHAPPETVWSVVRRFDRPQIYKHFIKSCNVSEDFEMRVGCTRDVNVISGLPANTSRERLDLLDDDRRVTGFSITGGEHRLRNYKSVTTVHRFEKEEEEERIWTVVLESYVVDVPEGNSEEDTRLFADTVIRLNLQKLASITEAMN
For `R111D`, “relative binding score” read -4.79%.
`V76I`: “relative binding score” 82.8%.
Under “relative binding score”, `T17G` is recorded as 19.7%.
`A84V`: “relative binding score” 17.5%.
For `I79L`, “relative binding score” read 20.1%.
`I105D` — result for “relative binding score”: -10.4%.
`K58L` — result for “relative binding score”: 21%.
For `S80T`, “relative binding score” read 60.9%.
For `E130T`, “relative binding score” read 79.5%.
`F66A`: “relative binding score” 59.2%.
`G107F`: “relative binding score” -0.177%.
Under “relative binding score”, `L138T` is recorded as -4.72%.
For `H16T`, “relative binding score” read -4.87%.
Under “relative binding score”, `I57P` is recorded as 12.8%.
Under “relative binding score”, `Y115A` is recorded as -2.52%.
`G107W`: “relative binding score” -0.626%.
`D48N` — result for “relative binding score”: 23.9%.
Under “relative binding score”, `A170N` is recorded as -5.8%.
Under “relative binding score”, `G107Y` is recorded as 4.06%.
For `E109Y`, “relative binding score” read 18%.
Under “relative binding score”, `Y18E` is recorded as 21.7%.
`R74N` — result for “relative binding score”: -2.66%.
`R45K`: “relative binding score” 37.9%.
Under “relative binding score”, `Q31V` is recorded as 23.7%.
`Q167P` — result for “relative binding score”: -2.42%.
